Published values pooled from the literature.
Each line is one published result; not all experiments were run side by side. ± marks the error that the study gave.

Structure (SMILES) = CC[C@H](C)[C@H](NC(=O)[C@H](Cc1ccccc1)NC(=O)[C@H](CC(=O)O)NC(=O)[C@@H]1CCCCNC(=O)NCC[C@H](NC(=O)[C@H](CC(C)C)NC(=O)[C@H](CCCNC(=N)N)NC(=O)[C@H](CCSC)NC(=O)[C@H](C)N)C(=O)N[C@@H](CCCCN)C(=O)N[C@@H](Cc2ccccc2)C(=O)N[C@@H](Cc2ccccc2)C(=O)N1)C(=O)N[C@@H](CC(C)C)C(=O)N[C@@H](CCC(N)=O)C(=O)N[C@@H](CCCNC(=N)N)C(=O)N[C@@H](CCCCN)C(=O)N[C@@H](CCCCN)C(=O)O; assay = circular dichroism; test system = 20% TFE in PBS; setting = 200 µM, pH 7.4, 25 °C; measurement = helicity; result = 28.3%
Structure (SMILES) = O=C(O)C1OC(OC2C(COS(=O)(=O)O)OC(OC3C(C(=O)O)OC(OC4C(COS(=O)(=O)O)OC(OC5C(C(=O)O)OC(OC6C(COS(=O)(=O)O)OC(OC7C(C(=O)O)OC(OC8C(COS(=O)(=O)O)OC(OC9C(C(=O)O)OC(OC%10C(COS(=O)(=O)O)OC(OC%11C(C(=O)O)OC(Oc%12ccc([N+](=O)[O-])cc%12)C(O)C%11O)C(NS(=O)(=O)O)C%10O)C(OS(=O)(=O)O)C9O)C(NS(=O)(=O)O)C8O)C(OS(=O)(=O)O)C7O)C(NS(=O)(=O)O)C6O)C(OS(=O)(=O)O)C5O)C(NS(=O)(=O)O)C4O)C(OS(=O)(=O)O)C3O)C(NS(=O)(=O)O)C2OS(=O)(=O)O)C(O)C(O)C1OC1OC(COS(=O)(=O)O)C(O)C(O)C1NS(=O)(=O)O (stereo not shown); test system = rat, kidneys; setting = intravenous, 3600 µg/kg per day, 7 days, day 8; measurement = organ-to-body weight ratio; result = 0.7 ± 0.04
Structure (SMILES) = N=C(N)NCCC[C@@H]1NC(=O)[C@H](Cc2c[nH]c3ccccc23)NC(=O)[C@@H](CC2CCCCC2)NC(=O)[C@@H]2CCCN2C(=O)[C@@H](NC(=O)CCc2ccccc2)CCCNC1=O; test system = C57BL/6J mice, spinal cord; setting = oral, 1 mg/kg, two-compartment model; measurement = apparent total clearance (CL/F); result = 0.81 ng/(min·ng/g)
Structure (SMILES) = C[C@H](NC(=O)[C@H](C)NC(=O)[C@H](C)NC(=O)[C@H](CCCNC(=N)N)NC(=O)[C@H](CCCNC(=N)N)NC(=O)[C@H](C)NC(=O)[C@H](C)NC(=O)[C@H](C)NC(=O)[C@H](C)NC(=O)[C@H](CCCNC(=N)N)NC(=O)[C@H](CCCNC(=N)N)NC(=O)[C@H](C)NC(=O)[C@H](C)NC(=O)[C@H](C)NC(=O)[C@H](C)NC(=O)[C@H](CCCNC(=N)N)NC(=O)[C@H](CCCNC(=N)N)NC(=O)c1ccc2c(c1)C(=O)OC21c2ccc(O)cc2Oc2cc(O)ccc21)C(=O)N[C@@H](C)C(=O)N[C@@H](CCCNC(=N)N)C(=O)N[C@@H](CCCNC(=N)N)C(=O)O; test system = bovine, healthy cartilage explants; setting = 30 µM, 24 h, 37 °C, 5-FAM labelled; scale = reference: tissue over bath concentration; measurement = cartilage uptake ratio; result = ~50
Structure (SMILES) = O=C(NCCCN(CCCCN(CCCNC(=O)c1cccc(=O)n1[O-])C(=O)c1cccc(=O)n1[O-])C(=O)c1cccc(=O)n1[O-])c1cccc(=O)n1[O-].[89Zr+4]; assay = radio-TLC; test system = PBS; setting = 1 d, pH 7.4, 37 °C, with: Ni^2+ 10-fold excess; measurement = intact complex; result = 98.4 ± 2.2%
Structure (SMILES) = CC1=C(/C=C/C(=O)N2CCN(C(N)=O)CC2)C(C)(C)CCC1; test system = male mice, retina; setting = oral, 40 mg/kg; measurement = Cmax; result = 23.7 nmol/g
Structure (SMILES) = CCCC[C@H](NC(=O)CNC(=O)CNC(=O)CN1CCN(CC(=O)O)CCN(CC(=O)O)CC1)C(=O)N[C@H]1CC(=O)NCCCC[C@@H](C(N)=O)NC(=O)[C@H](Cc2c[nH]c3ccccc23)NC(=O)[C@H](CCCNC(=N)N)NC(=O)[C@@H](Cc2ccccc2)NC(=O)[C@H](Cc2c[nH]cn2)NC1=O [gallium-67 labelled]; test system = female C57 mice, B16/F1 melanoma; setting = intravenous, 0.037 MBq, 0.5 h; scale = reference: tumour over lung; measurement = tumour to tissue ratio; result = 5.54
Structure (SMILES) = Cc1cc(C)c(-c2ccc(NC(=O)[C@H](Cc3ccc(C(=O)NCCS(=O)(=O)O)cc3)c3ccc(-c4ccc(C(C)(C)C)cc4)cc3)cc2)c(C)c1; test system = mouse, HFD-induced obese; setting = oral, 50 mg/kg once daily, 6 weeks; measurement = daily food intake; result = no effect
Structure (SMILES) = Cc1cc2c(NC(=O)N[C@@H]3CC(C)(C)Oc4c(OC(F)(F)F)cccc43)cccc2cn1; assay = telemetry; test system = male Sprague-Dawley rats; setting = dose not given; measurement = body temperature change; result = ~-2 °C
Structure (SMILES) = [2H]C([2H])([2H])C(c1cc2nnc(-c3cc(F)ccc3F)n2nc1OCc1ncnn1C)(C([2H])([2H])[2H])C([2H])([2H])[2H]; test system = Wistar rat, plasma; setting = oral, 1 mg/kg, 2 h; measurement = concentration; result = 191 ng/mL
Structure (SMILES) = CSCOC1C(=O)C2(C)C(OCSC)CC3OCC3(OC(C)=O)C2C(OC(=O)c2ccccc2)C2(O)CC(OC(=O)C(O)C(C=C(C)C)NC(=O)OC(C)(C)C)C(C)=C1C2(C)C (stereo not shown); test system = male Sprague-Dawley rat, plasma; setting = intravenous, 1 mg/kg; measurement = Cmax; result = 66 ng/mL
Structure (SMILES) = CCCCCCCCCCCCCCCC(=O)N[C@@H](CCCCN)C(=O)N[C@@H](CCCCN)C(=O)N[C@@H](CO)C(=O)N[C@@H](CCCNC(=N)N)C(=O)N[C@@H](C)C(=O)N[C@@H](CC(C)C)C(=O)N[C@@H](Cc1ccccc1)C(N)=O; test system = cynomolgus monkey, female; setting = 10 mg/kg, day 5; measurement = prothrombin time; result = 11.4 ± 0.6 s
Structure (SMILES) = Cn1c(=O)oc2ccc(-c3ccc(CC(C#N)NC(=O)C4CNCCCO4)c(F)c3)cc21 (stereo not shown); test system = human; setting = oral, 20 mg once daily, treatment-related AE, multiple ascending dose; measurement = mouth ulceration incidence; result = 11.1%
Structure (SMILES) = Cc1ccc(O)c2c3c(nn12)CCC(C)(NC(=O)c1ccc(-n2cnc4cc(C(=O)O)ccc42)cc1Cl)C3 (stereo not shown); test system = rat; setting = dose not given; measurement = volume of distribution; result = 0.19 L/kg
Structure (SMILES) = COc1cc(NC(C)=O)c2c(c1O)-c1c(OC)c(OC)cc3c1C(C2)N(C)CC3 (stereo not shown); test system = rat liver homogenate; setting = 5 µg/mL, time not given, three freeze-thaw cycles; measurement = remaining compound; result = 101.1 ± 0.7%
Structure (SMILES) = COC(=O)C(Cc1c[nH]cn1)NC(=O)C1(C)C(O)CCC2(C)C1CCC1(C)C2CC=C2C3C(C)C(C)CCC3(C)CCC21C (stereo not shown); test system = Wistar rat colon homogenate; setting = 90 µg/mL, 12 h, 37 °C; measurement = prodrug hydrolysed; result = 78.1%
Structure (SMILES) = OC1(C(F)(F)F)CCN(c2nc(Nc3ccnc(C(F)(F)F)c3)nc(-c3cccc(C(F)(F)F)n3)n2)C1 (stereo not shown); test system = monkey, blood; setting = oral, 10 mg/kg; measurement = oral bioavailability; result = 163%
Structure (SMILES) = OCc1cn(Cc2ccc(-c3noc(-c4ccc(OCC[18F])c(C(F)(F)F)c4)n3)cc2)nn1; test system = female Lewis rat, thymus; setting = intravenous, 30 min; measurement = tissue uptake; result = 0.83 ± 0.07 %ID/g
Structure (SMILES) = CONC(=O)/C=C/c1cccc(S(=O)(=O)Nc2ccccc2)c1; test system = human, severe liver dysfunction, plasma; setting = intravenous, 400 mg/m^2 belinostat, cycle 1 day -7, geometric mean; scale = reference: metabolite over belinostat; measurement = Cmax metabolic ratio; result = 0.134
Structure (SMILES) = CC(C)[C@H](NC(=O)[C@@H]1CCCN1C(=O)[C@H](CCCNC(=N)N)NC(=O)[C@H](CS)NC(=O)[C@H](Cc1c[nH]c2ccccc12)NC(=O)[C@H](CCCNC(=N)N)NC(=O)[C@@H](Cc1ccccc1)NC(=O)[C@H](Cc1c[nH]cn1)NC(=O)[C@H](CCC(=O)O)NC(=O)[C@H](CS)NC(=O)[C@H](CS)NC(=O)CNC(=O)[C@@H]1CC(=O)N[C@@H](CCCNC(=N)N)C(=O)NCC(=O)N[C@@H](CC(=O)O)C(=O)N[C@H](Cc2ccc(O)cc2)C(=O)N1)C(N)=O [technetium-99m labelled]; test system = C57 mouse, female, B16/F1 melanoma, spleen; setting = intravenous, 0.037 MBq, 4 h; measurement = tissue uptake; result = 1.18 ± 0.43 %ID/g
Structure (SMILES) = CCCC[C@@H]1NC(=O)[C@@H](NC(=O)[C@H](CCC(=O)O)NC(=O)CNC(=O)CN2CCN(CC(=O)O)CCN(CC(=O)O)CCN(CC(=O)O)CC2)CCCCNC(=O)C[C@@H](C(N)=O)NC(=O)[C@H](C(C)C)NC(=O)[C@@H]2CCCN2C(=O)[C@H](CCCNC(=N)N)NC(=O)CNC(=O)[C@H](Cc2c[nH]c3ccccc23)NC(=O)[C@H](CCCNC(=N)N)NC(=O)[C@@H](Cc2ccccc2)NC(=O)[C@H](Cc2c[nH]cn2)NC(=O)[C@H](CCC(=O)O)NC1=O [gallium-67 labelled]; test system = C57 mice, B16/F1 flank melanoma, tumour; setting = intravenous, 0.037 MBq, 0.5 h; measurement = tumour uptake; result = 8.59 ± 1.37 %ID/g
Structure (SMILES) = Cc1ccc(OCC(=O)O)cc1; test system = Sprague-Dawley rat, female, plasma; setting = oral gavage, 10 mg/kg of parent drug; measurement = Tmax; result = 0.63 h
Structure (SMILES) = CC(C)(Sc1cc[n+]([O-])cc1-c1ccc(C#N)c2ccccc12)C(=O)OC1OC(C(=O)O)C(O)C(O)C1O (stereo not shown); test system = adult men, plasma; setting = oral, 15 mg verinurad, severe renal impairment; scale = reference: normal renal function; measurement = Cmax increase; result = 270%
Structure (SMILES) = CN1CCC[C@]1(C)/C=C/S(=O)(=O)NC(=O)Nc1c2c(cc3c1CCC3)CCC2; test system = human, plasma; setting = oral, 25 to 400 mg, single dose; measurement = elimination half-life; result = 6 to 7 h
Structure (SMILES) = COC(=O)c1ccc2c(c1)NC(=O)/C2=C(\Nc1ccc2c(c1)CCN2C(=O)CN1CCOCC1)c1ccccc1; test system = cynomolgus monkey, plasma; setting = intravenous, 2 mg/kg; measurement = clearance; result = 8.17 mL/min/kg
Structure (SMILES) = COc1ccc(S(=O)(=O)N/N=C/c2ccc(C#N)cc2)cc1OC; test system = Wistar rat, male, rat liver microsomes; setting = 10 µM, 24 h, pH 7.4, 37 °C; measurement = recovery; result = < 20%
Structure (SMILES) = CCCC(CCC)NC(=O)c1ccc(OS(=O)(=O)O)c(OC)c1; test system = male Sprague-Dawley rat, plasma; setting = oral, 50 mg/kg of parent drug; measurement = Tmax; result = 2 h
Structure (SMILES) = CCCCn1c2ccc([N+](=O)[O-])cc2c(=O)n1Cc1ccccc1; assay = resazurin; test system = peritoneal macrophages, BALB/c mice; setting = 48 h, 10% FBS; measurement = CC50; result = 5.1 ± 1.6 µM

A few entries again:
Structure (SMILES) = CCCC[C@@H]1NC(=O)[C@@H](NC(=O)[C@H](CCC(=O)O)NC(=O)CNC(=O)CN2CCN(CC(=O)O)CCN(CC(=O)O)CCN(CC(=O)O)CC2)CCCCNC(=O)C[C@@H](C(N)=O)NC(=O)[C@H](C(C)C)NC(=O)[C@@H]2CCCN2C(=O)[C@H](CCCNC(=N)N)NC(=O)CNC(=O)[C@H](Cc2c[nH]c3ccccc23)NC(=O)[C@H](CCCNC(=N)N)NC(=O)[C@@H](Cc2ccccc2)NC(=O)[C@H](Cc2c[nH]cn2)NC(=O)[C@H](CCC(=O)O)NC1=O [gallium-67 labelled]; test system = C57 mice, B16/F1 flank melanoma, tumour; setting = intravenous, 0.037 MBq, 0.5 h; measurement = tumour uptake; result = 8.59 ± 1.37 %ID/g
Structure (SMILES) = Cc1ccc(OCC(=O)O)cc1; test system = Sprague-Dawley rat, female, plasma; setting = oral gavage, 10 mg/kg of parent drug; measurement = Tmax; result = 0.63 h
Structure (SMILES) = CC(C)(Sc1cc[n+]([O-])cc1-c1ccc(C#N)c2ccccc12)C(=O)OC1OC(C(=O)O)C(O)C(O)C1O (stereo not shown); test system = adult men, plasma; setting = oral, 15 mg verinurad, severe renal impairment; scale = reference: normal renal function; measurement = Cmax increase; result = 270%
